Published values from different studies.
Each numbered part is a random draw from the data of one study; scales do not carry over between parts.

Study 1
Target: Centromere-binding protein 1, full length, His-tagged (CBF1, Saccharomyces cerevisiae, UniProt P17106, residues 1-351)
UniProt P17106, sequence (whole entry, looked up): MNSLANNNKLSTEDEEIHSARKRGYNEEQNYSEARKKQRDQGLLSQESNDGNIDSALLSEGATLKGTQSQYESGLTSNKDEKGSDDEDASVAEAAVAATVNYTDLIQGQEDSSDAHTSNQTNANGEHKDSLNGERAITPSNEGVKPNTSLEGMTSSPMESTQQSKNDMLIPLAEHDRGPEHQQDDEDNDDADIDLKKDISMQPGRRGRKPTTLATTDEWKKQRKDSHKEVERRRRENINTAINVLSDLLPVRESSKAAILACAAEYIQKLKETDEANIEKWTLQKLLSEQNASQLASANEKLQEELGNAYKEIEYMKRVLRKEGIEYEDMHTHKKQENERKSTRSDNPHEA
Technique: competition protein-binding microarray
Molecule type: double-stranded DNA, one strand shown
Matrix: in vitro
Tested at: 2 µM
Notes: whole 60-bp probe, lowest competitor level
Added: Pho4 competitor, 0.05 µM
Reading: higher = stronger binding
`CTGGAACTAGATCGGCACGCAACTTTTGTGGGCGAGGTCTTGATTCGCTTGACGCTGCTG` has a fluorescence intensity of 68.1 a.u.
The fluorescence intensity of `AGGCACAACTTTCCGCACGTAGTGTTTTCAGCCCCAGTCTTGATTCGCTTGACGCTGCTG` is reported as 73.1 a.u.
With `AAAGCGGTAATTTAACACGTGTTTTCACATATCTATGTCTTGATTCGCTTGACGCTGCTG` the fluorescence intensity was 3170 a.u.
With `AAATTACTAAGTTGGGTTGTGGGTGACGCCGTATGAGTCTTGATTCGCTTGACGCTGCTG` the fluorescence intensity was 52.3 a.u.
`CATACCCAACCTTGCTCTGTGGGTGAAGATATTTGTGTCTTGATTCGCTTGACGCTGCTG` has a fluorescence intensity of 80.2 a.u.
The fluorescence intensity of `TTGATGTACTTGTCTCACGTGGAAGCAACCATTTTGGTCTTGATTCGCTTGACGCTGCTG` is reported as 887 a.u.

Study 2
Target: Sal-like protein 4, full length isoform A (SALL4, Homo sapiens, UniProt Q9UJQ4, residues 1-1053)
UniProt Q9UJQ4, sequence (whole entry, looked up): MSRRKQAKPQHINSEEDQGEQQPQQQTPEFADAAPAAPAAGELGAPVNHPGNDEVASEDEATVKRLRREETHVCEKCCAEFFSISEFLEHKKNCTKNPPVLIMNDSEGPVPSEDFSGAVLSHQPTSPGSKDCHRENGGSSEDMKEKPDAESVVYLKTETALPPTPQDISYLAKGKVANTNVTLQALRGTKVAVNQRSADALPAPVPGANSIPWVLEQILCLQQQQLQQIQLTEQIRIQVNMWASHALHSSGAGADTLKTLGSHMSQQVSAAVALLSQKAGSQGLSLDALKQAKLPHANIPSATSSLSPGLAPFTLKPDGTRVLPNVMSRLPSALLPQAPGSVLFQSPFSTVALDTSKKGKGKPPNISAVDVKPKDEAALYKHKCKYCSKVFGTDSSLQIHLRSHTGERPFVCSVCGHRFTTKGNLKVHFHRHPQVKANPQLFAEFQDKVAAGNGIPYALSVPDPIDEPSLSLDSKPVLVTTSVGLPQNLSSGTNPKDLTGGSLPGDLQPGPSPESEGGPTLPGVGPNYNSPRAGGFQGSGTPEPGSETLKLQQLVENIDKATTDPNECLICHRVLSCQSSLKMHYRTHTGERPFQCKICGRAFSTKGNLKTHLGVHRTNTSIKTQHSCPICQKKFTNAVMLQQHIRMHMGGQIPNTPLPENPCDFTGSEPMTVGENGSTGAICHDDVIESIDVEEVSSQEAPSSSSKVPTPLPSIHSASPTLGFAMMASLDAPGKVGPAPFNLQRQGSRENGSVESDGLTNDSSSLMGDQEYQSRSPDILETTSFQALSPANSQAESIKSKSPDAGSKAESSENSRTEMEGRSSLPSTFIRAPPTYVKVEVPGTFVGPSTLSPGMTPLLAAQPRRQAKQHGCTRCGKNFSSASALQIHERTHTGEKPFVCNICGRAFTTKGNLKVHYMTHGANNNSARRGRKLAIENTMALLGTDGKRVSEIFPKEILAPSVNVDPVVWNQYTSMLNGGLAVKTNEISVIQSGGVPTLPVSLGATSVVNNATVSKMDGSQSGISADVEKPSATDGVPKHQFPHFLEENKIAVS
Technique: universal PBM
Molecule type: double-stranded DNA, one strand shown
Matrix: in vitro
Tested at: 600 nM
Notes: 8-mer, flanks averaged, mean of replicates
Reading: higher = stronger binding
The E-score of `GGGTCTAA` is reported as -0.155.
`ACCTTTTG` gave an E-score of -0.0435.
With `ACCTACAT` the E-score was 0.157.
For `AGGGATGG`, the E-score was -0.146.

Study 3
Target: Prothrombin, mature alpha-thrombin (F2, Homo sapiens, UniProt P00734)
Technique: aptamer microarray, sandwich
Molecule type: DNA with 2'F-ANA
Matrix: in vitro
Tested at: 200 nM
Notes: whole 15-mer aptamer, many near background
Added: Cy3 exosite-II aptamer, 400 nM
Reading: higher = stronger binding
Oligonucleotide: GGTTGGTGTGGTTGG
`2'F-ANA at 3 4 5 7 12 14`: “mean fluorescence intensity” 56.1 a.u.
For `2'F-ANA at 2 4 6 7 9 10 12 13 15`, “mean fluorescence intensity” read 80.6 a.u.
For `2'F-ANA at 1 3 6 9 10 12 13 14`, “mean fluorescence intensity” read 84.6 a.u.
`2'F-ANA at 1 2 7 12 15` — result for “mean fluorescence intensity”: 338 a.u.
For `2'F-ANA at 2 4 5 6 11 12 13 14 15`, “mean fluorescence intensity” read 54.9 a.u.
`2'F-ANA at 2 4 6 7 10 11 15` — result for “mean fluorescence intensity”: 73.1 a.u.

Further values, each from its own experiment
The fold induction of `PhoQ, residues 284 288 289 292 302 303 DDMDFR` is reported as 0.635 (PhoP, residues 12 14 15 18 19 SEGLL (Escherichia coli, UniProt P23836); Sort-seq, item: YFP reporter; E. coli; PhoQ-PhoP variant library, added: 10 µM Mg2+; baseline: high Mg2+ state, higher = stronger signaling).

Some of these lines once more (study 3):
`2'F-ANA at 1 2 7 12 15` — result for “mean fluorescence intensity”: 338 a.u.
For `2'F-ANA at 2 4 5 6 11 12 13 14 15`, “mean fluorescence intensity” read 54.9 a.u.
